Results collected from several papers.
Lines come from different studies, so protocols differ. ± gives the spread as reported.

Molecule | assay | test system | conditions | scale | quantity | result
CCCN(O)N=Nc1ccc(S(=O)(=O)Nc2nccs2)cc1 | paw oedema | rat, carrageenan oedema | oral, 100 mg/kg, 2 h after carrageenan | baseline: vehicle | inhibition | 35.1%
Cc1cc(C)c(/C=C2\C(=O)Nc3ccccc32)[nH]1 | MRI | human | concentration not given, 3.1 months |  | tumour area | 1.46 cm²
CCCCc1ncc(CO)n1Cc1ccc(-c2ccccc2-c2nn[nH]n2)cc1 |  | mouse DSS colitis | transanal, 100 mg/kg/day, day 1 | baseline: baseline | body weight change | -2.02 ± 4.34%
Cc1cccc(N(O)N=Nc2ccc(S(=O)(=O)Nc3onc(C)c3C)cc2)c1 | paw oedema | rat, carrageenan oedema | oral, 100 mg/kg, 4 h after carrageenan | baseline: vehicle | inhibition | 68.3%
COc1ccc2c(c1)c(CC(=O)O)c(C)n2C(=O)c1ccc(Cl)cc1 | multiplex bead immunoassay, measured: TNF-α | CD-1 mice, serum | ip, 20 mg/kg, three-injection regimen, together with: LPS 3 mg/kg |  | cytokine level | 116 ± 87.2 pg/mL
[2H]c1c([2H])c([2H])c2c(C([2H])([2H])[2H])c3c(c([2H])c([2H])c4c([2H])c([2H])c([2H])c([2H])c43)c(C([2H])([2H])[2H])c2c1[2H] | adrenal haemorrhage prevention | rat | oral, together with: 7,12-DMBA 5 mg i.v. |  | minimal protective dose | 2 mg
Cc1cc(C)c(CNC(=O)c2cc(Cl)c3c(c2C)O[C@@](C)([C@H]2CC[C@H](N(C)C)CC2)O3)c(=O)[nH]1 |  | patients with relapsed/refractory ATL | 200 mg once daily, skin lesions |  | objective response rate | 42.9%
O=S(=O)(NCCNC/C=C/c1ccc(Br)cc1)c1cccc2cnccc12 |  | Sprague Dawley rats | 250 µM | baseline: own control | CSF secretion rate | 71 ± 5%
CS/C(S)=N/CCCC[S+](C)[O-] (racemic) | RT-PCR, measured: Nqo1 | rat, colon | oral gavage, 200 mg/kg, 96 h, dosed for four days | baseline: vehicle | mRNA fold change | 2.23
CC(=O)c1sc(N=C2c3ccccc3-c3nc4cc(F)ccc4nc32)nc1C |  | mice with STZ-induced diabetes | oral, 25 mg/kg, 144 h, day 6 |  | blood glucose | 567 ± 15.4 mg/dL
Cc1c(C(=O)NN2CCCCC2)nn(-c2ccc(Cl)cc2Cl)c1-c1ccc(Cl)cc1 |  | rat, lean | intracerebroventricular, 5 µg per day, 6 days | baseline: vehicle | food intake | decreased
Cc1ccc2cc3ccc4ccccc4c3cc2c1 | adrenal haemorrhage prevention | rat | oral, together with: 7,12-DMBA 5 mg i.v. |  | minimal protective dose | 0.5 mg
insulin aspart | euglycaemic glucose clamp | elderly type 1 diabetes | subcutaneous, 0.2 U/kg |  | time to GIRmax | 146 min
CCC1SC(NN=C2c3ccccc3-c3nc4cc(F)ccc4nc32)=NC1=O (stereo not shown) |  | mice with STZ-induced diabetes | oral, 25 mg/kg, 288 h, day 12 |  | blood glucose | 202 ± 13.5 mg/dL
Cc1c(C)c2c(c(C)c1OCc1ccccc1)CCC(C)(C(=O)NN=C1C(=O)Nc3ccc(Cl)cc31)O2 (stereo not shown) | seizure protection | male CF-1 mice | intraperitoneal, 0.5 h, together with: pentylenetetrazole 60 mg/kg subcutaneous |  | minimal effective dose | 100 mg/kg
COc1ccc(-c2c(Nc3ccccn3)[nH]c3c(C4=CCCCC4)c(-c4ccccc4)nn3c2=O)cc1 | immunohistochemistry H-score, measured: SDMA | human, tumour biopsy | concentration not given | baseline: baseline biopsy | fold increase | ~2 fold

Molecule | assay | test system | conditions | scale | quantity | result
CCCCCCCCCCCCCCCC(=O)NCCCC[C@H](NC(=O)[C@H](CCC(=O)O)NC(=O)[C@H](CCC(=O)O)NC(=O)[C@H](Cc1ccc(O)cc1)NC(=O)[C@H](CCC(=O)O)NC(=O)CCCCCNC(=S)Nc1ccc2c(c1)C(=O)OC21c2ccc(O)cc2Oc2cc(O)ccc21)C(=O)N[C@@H](Cc1ccc(O)cc1)C(=O)N[C@@H](CCC(=O)O)C(=O)NCC(=O)NCC(=O)NCC(=O)NCC(=O)N[C@@H](CO)C(=O)NCC(=O)NCC(=O)NCC(=O)NCC(=O)N[C@@H](CO)C(=O)N[C@@H](Cc1ccccc1)C(=O)N[C@@H](CC(N)=O)C(=O)N1CCC[C@H]1C(=O)N[C@@H](CCCNC(=N)N)C(=O)N[C@@H](Cc1c[nH]cn1)C(=O)NC(C)(C)C(=O)N[C@@H](CCC(=O)O)C(=O)NCC(=O)N[C@H](C(=O)N[C@@H](Cc1ccccc1)C(=O)N[C@H](C(=O)N[C@@H](CO)C(=O)N[C@@H](CC(=O)O)C(=O)N[C@H](C(=O)N[C@@H](CO)C(=O)N[C@@H](CO)C(=O)N[C@@H](Cc1ccc(O)cc1)C(=O)N[C@@H](CC(C)C)C(=O)N[C@@H](CCC(=O)O)C(=O)NCC(=O)N[C@@H](CCC(N)=O)C(=O)N[C@@H](C)C(=O)N[C@@H](C)C(=O)N[C@@H](CCCCN)C(=O)N[C@@H](CCC(=O)O)C(=O)N[C@@H](Cc1ccccc1)C(=O)N[C@H](C(=O)N[C@@H](C)C(=O)N[C@@H](Cc1c[nH]c2ccccc12)C(=O)N[C@@H](CC(C)C)C(=O)N[C@H](C(=O)N[C@@H](CCCCN)C(=O)NCC(=O)N[C@@H](CCCNC(=N)N)C(=O)NCC(=O)O)C(C)C)[C@@H](C)CC)C(C)C)[C@@H](C)O)[C@@H](C)O |  | db/db mouse | subcutaneous, 10, 30 and 90 nmol/kg twice weekly, 8 weeks | baseline: saline | HbA1c | decreased
CCOC(=O)c1sc(N=C2c3ccccc3-c3nc4cc(F)ccc4nc32)nc1C |  | mice with STZ-induced diabetes | oral, 25 mg/kg, 216 h, day 9 |  | blood glucose | 220 ± 13.9 mg/dL
NCCCC[C@@H]1NC(=O)[C@@H](Cc2c[nH]c3ccccc23)NC(=O)[C@H](c2ccccc2)NC(=O)[C@@H]2C[C@@H](OC(=O)NCCN)CN2C(=O)[C@H](Cc2ccccc2)NC(=O)[C@H](Cc2ccc(OCc3ccccc3)cc2)NC1=O | GHRH-stimulated GH secretion | healthy human volunteers | subcutaneous, 1200 µg, together with: GHRH 1 µg/kg | baseline: pre-dose baseline | GH AUC(0-2h) change | -95.7%
CCCCCCCCCC(=O)N[C@@H](Cc1c[nH]c2ccccc12)C(=O)N[C@H](CC(N)=O)C(=O)N[C@@H](CC(=O)O)C(=O)N[C@@H]1C(=O)NCC(=O)N[C@@H](CCCN)C(=O)N[C@@H](CC(=O)O)C(=O)N[C@H](C)C(=O)N[C@@H](CC(=O)O)C(=O)NCC(=O)N[C@H](CO)C(=O)N[C@@H]([C@H](C)CC(=O)O)C(=O)N[C@@H](CC(=O)c2ccccc2N)C(=O)O[C@@H]1C |  | Japanese patients with SSTI | intravenous, 4 mg/kg once daily, 7 to 14 days, test-of-cure, MITT-MRSA |  | clinical success | 81.8%
insulin human |  | STZ-diabetic Sprague-Dawley rat | intravenous infusion, 20 + 10 pmol/kg/min, glucose tolerance test |  | maximum plasma glucose | 15.1 ± 0.7 mM
Cc1c(C)c2c(c(C)c1O)CCC(C)(C(=O)NN=C1C(=O)Nc3ccccc31)O2 (stereo not shown) | seizure protection | male CF-1 mice | intraperitoneal, 0.5 h, together with: pentylenetetrazole 60 mg/kg subcutaneous |  | minimal effective dose | 300 mg/kg
SIIVFEKL | flow cytometry, measured: CD44hi CD8+ T cells | peptide, OT-I CD8+ T cells, mouse | dose not given, primed 5 days, TGF-β1 from day 2 onward, together with: 20 ng/mL TGF-β1 |  | IL-2+ TNF-α+ cells | 5.22%
Cc1c(C)c2c(c(C)c1OCc1ccccc1)CCC(C)(C(=O)NN=C1C(=O)Nc3ccc(F)cc31)O2 (stereo not shown) | seizure protection | male CF-1 mice | intraperitoneal, 0.5 h, together with: maximal electroshock |  | minimal effective dose | 300 mg/kg
CO[C@H]1/C=C\C=C(/C)C(=O)NC2=CC(=O)C(NCCN(C)C)=C(C[C@@H](C)C[C@H](OC)[C@H](O)[C@@H](C)/C=C(\C)[C@@H]1OC(N)=O)C2=O | western blot | mouse, SK-OV-3 xenograft, tumour | ip, 50 mg/kg, 3 doses every 8 h, unit not given | baseline: α-tubulin | HER2 protein level | 0.32 ± 0.06
Cc1c(C)c2c(c(C)c1O)CCC(C)(C(=O)NN=C1C(=O)Nc3cc(Cl)ccc31)O2 (stereo not shown) | seizure protection | male CF-1 mice | intraperitoneal, 4 h, together with: pentylenetetrazole 60 mg/kg subcutaneous |  | minimal effective dose | 30 mg/kg
enoxaparin |  | human subjects, plasma | dose not given, together with: dabigatran etexilate 220 mg | baseline: dabigatran etexilate alone | aPTT AUEC(0-48) increase | ~14%
Cc1c(C)c2c(c(C)c1OCc1ccccc1)CCC(C)(C(=O)NN=C1C(=O)Nc3ccccc31)O2 (stereo not shown) | seizure protection | male CF-1 mice | intraperitoneal, 4 h, together with: pentylenetetrazole 60 mg/kg subcutaneous |  | minimal effective dose | 30 mg/kg
Polymyxin B |  | human whole blood | 50 ng/mL, 4 h, 37 °C, together with: E. coli LPS 0.5 ng/mL | baseline: LPS without compound | IL-1β release | 31.1 ± 9.6%
Cc1ccc(C(=O)NC2CC2)cc1-n1ncc(C(=O)c2cccc(C#N)c2)c1N | LPS-induced TNFα secretion, inhibitor | healthy human, peripheral blood ex vivo | unbound, fraction unbound 0.15 |  | IC50 | 17 nM
AGEDPHGYALPGQAA | ELISA or Luminex | peptide, mouse peritoneal macrophages, C57BL/6 mouse | optimal dose within 0.1 pM to 100 nM, 1 h pretreatment, 15 h stimulation, together with: LPS 100 ng/mL + IFN-γ 20 ng/mL | baseline: LPS/IFN-γ stimulated control | inhibition of RANTES release | 0%

Some of these lines once more:
Molecule | assay | test system | conditions | scale | quantity | result
AGEDPHGYALPGQAA | ELISA or Luminex | peptide, mouse peritoneal macrophages, C57BL/6 mouse | optimal dose within 0.1 pM to 100 nM, 1 h pretreatment, 15 h stimulation, together with: LPS 100 ng/mL + IFN-γ 20 ng/mL | baseline: LPS/IFN-γ stimulated control | inhibition of RANTES release | 0%
Cc1c(C)c2c(c(C)c1O)CCC(C)(C(=O)NN=C1C(=O)Nc3ccccc31)O2 (stereo not shown) | seizure protection | male CF-1 mice | intraperitoneal, 0.5 h, together with: pentylenetetrazole 60 mg/kg subcutaneous |  | minimal effective dose | 300 mg/kg
CCCCCCCCCCCCCCCC(=O)NCCCC[C@H](NC(=O)[C@H](CCC(=O)O)NC(=O)[C@H](CCC(=O)O)NC(=O)[C@H](Cc1ccc(O)cc1)NC(=O)[C@H](CCC(=O)O)NC(=O)CCCCCNC(=S)Nc1ccc2c(c1)C(=O)OC21c2ccc(O)cc2Oc2cc(O)ccc21)C(=O)N[C@@H](Cc1ccc(O)cc1)C(=O)N[C@@H](CCC(=O)O)C(=O)NCC(=O)NCC(=O)NCC(=O)NCC(=O)N[C@@H](CO)C(=O)NCC(=O)NCC(=O)NCC(=O)NCC(=O)N[C@@H](CO)C(=O)N[C@@H](Cc1ccccc1)C(=O)N[C@@H](CC(N)=O)C(=O)N1CCC[C@H]1C(=O)N[C@@H](CCCNC(=N)N)C(=O)N[C@@H](Cc1c[nH]cn1)C(=O)NC(C)(C)C(=O)N[C@@H](CCC(=O)O)C(=O)NCC(=O)N[C@H](C(=O)N[C@@H](Cc1ccccc1)C(=O)N[C@H](C(=O)N[C@@H](CO)C(=O)N[C@@H](CC(=O)O)C(=O)N[C@H](C(=O)N[C@@H](CO)C(=O)N[C@@H](CO)C(=O)N[C@@H](Cc1ccc(O)cc1)C(=O)N[C@@H](CC(C)C)C(=O)N[C@@H](CCC(=O)O)C(=O)NCC(=O)N[C@@H](CCC(N)=O)C(=O)N[C@@H](C)C(=O)N[C@@H](C)C(=O)N[C@@H](CCCCN)C(=O)N[C@@H](CCC(=O)O)C(=O)N[C@@H](Cc1ccccc1)C(=O)N[C@H](C(=O)N[C@@H](C)C(=O)N[C@@H](Cc1c[nH]c2ccccc12)C(=O)N[C@@H](CC(C)C)C(=O)N[C@H](C(=O)N[C@@H](CCCCN)C(=O)NCC(=O)N[C@@H](CCCNC(=N)N)C(=O)NCC(=O)O)C(C)C)[C@@H](C)CC)C(C)C)[C@@H](C)O)[C@@H](C)O |  | db/db mouse | subcutaneous, 10, 30 and 90 nmol/kg twice weekly, 8 weeks | baseline: saline | HbA1c | decreased
Cc1cc(C)c(CNC(=O)c2cc(Cl)c3c(c2C)O[C@@](C)([C@H]2CC[C@H](N(C)C)CC2)O3)c(=O)[nH]1 |  | patients with relapsed/refractory ATL | 200 mg once daily, skin lesions |  | objective response rate | 42.9%
